Assay results from different studies.
Each line is one published result; not all experiments were run side by side. Numbers after ± are the reported error. In brackets after ≈: the same amount, converted by molar mass.
Chain of UniProt P43250 (whole entry, looked up): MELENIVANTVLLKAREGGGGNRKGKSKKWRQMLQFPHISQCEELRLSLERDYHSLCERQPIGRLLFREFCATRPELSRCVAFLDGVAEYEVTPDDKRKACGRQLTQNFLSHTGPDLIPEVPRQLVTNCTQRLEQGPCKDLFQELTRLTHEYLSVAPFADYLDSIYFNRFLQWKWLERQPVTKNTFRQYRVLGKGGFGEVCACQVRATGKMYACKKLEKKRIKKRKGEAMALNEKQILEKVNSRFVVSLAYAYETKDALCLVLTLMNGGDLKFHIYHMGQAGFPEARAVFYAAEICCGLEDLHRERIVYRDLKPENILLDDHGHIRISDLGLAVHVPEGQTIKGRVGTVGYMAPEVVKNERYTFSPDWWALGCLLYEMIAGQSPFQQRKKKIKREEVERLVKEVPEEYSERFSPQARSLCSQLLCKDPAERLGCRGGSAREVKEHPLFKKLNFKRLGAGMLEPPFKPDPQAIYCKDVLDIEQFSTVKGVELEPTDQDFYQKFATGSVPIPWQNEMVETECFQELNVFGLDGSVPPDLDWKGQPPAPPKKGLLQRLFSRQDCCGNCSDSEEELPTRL
Chain of UniProt Q13153 (whole entry, looked up): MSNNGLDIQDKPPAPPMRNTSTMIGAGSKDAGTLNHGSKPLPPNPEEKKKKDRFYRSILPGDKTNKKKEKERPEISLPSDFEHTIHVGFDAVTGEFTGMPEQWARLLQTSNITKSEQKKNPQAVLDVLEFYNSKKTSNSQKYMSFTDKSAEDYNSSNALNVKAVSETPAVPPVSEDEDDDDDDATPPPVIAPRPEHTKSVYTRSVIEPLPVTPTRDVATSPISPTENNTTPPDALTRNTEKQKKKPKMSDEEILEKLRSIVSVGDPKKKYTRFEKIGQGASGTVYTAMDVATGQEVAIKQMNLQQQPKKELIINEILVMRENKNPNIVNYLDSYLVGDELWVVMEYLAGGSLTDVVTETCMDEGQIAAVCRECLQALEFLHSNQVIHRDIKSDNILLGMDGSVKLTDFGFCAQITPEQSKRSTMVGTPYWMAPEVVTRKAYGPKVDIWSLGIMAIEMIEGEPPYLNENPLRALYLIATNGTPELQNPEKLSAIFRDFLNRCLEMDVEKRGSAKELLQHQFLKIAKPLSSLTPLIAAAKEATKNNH

SMILES | target or system | assay | test system | conditions | scale | endpoint | value
O=C1NC2(CC2)COc2ncc(F)cc2[C@H]2COCCN2c2ccn3ncc1c3n2 |  |  | Sprague-Dawley rat, female, serum | oral, 5 mg/kg/day, end of treatment, 4-week subacute toxicity |  | serum hepatic lipase activity | 4 ± 0.8 U/L
CC[C@H](C)[C@H](NC(=O)[C@H](CCCCN)NC(=O)[C@H](CCCCN)NC(=O)[C@H](Cc1ccccc1)NC(=O)[C@H](Cc1ccccc1)NC(=O)[C@H](CCCCN)NC(=O)[C@H](CCCCN)NC(=O)[C@H](Cc1ccccc1)NC(=O)[C@H](CCCNC(=N)N)NC(=O)[C@@H](N)CCCCN)C(=O)N[C@@H](CCCCN)C(=O)N[C@@H](CCCCN)C(=O)N[C@@H](CO)C(=O)N[C@H](C(=O)N[C@@H](CCCCN)C(=O)N[C@@H](CCCCN)C(=O)N[C@@H](CCCNC(=N)N)C(=O)N[C@H](C(=O)N[C@@H](CCCCN)C(=O)N[C@@H](CCCCN)C(=O)N[C@@H](CC(C)C)C(=O)N[C@@H](Cc1ccccc1)C(=O)N[C@@H](CCCCN)C(=O)N[C@@H](CCCCN)C(=O)N1CCC[C@H]1C(=O)N[C@@H](CCCNC(=N)N)C(=O)N[C@H](C(=O)N[C@H](C(=O)N1CCC[C@H]1C(=O)N[C@H](C(=O)N[C@@H](CO)C(=O)N[C@H](C(=O)N1CCC[C@H]1C(=O)N[C@@H](Cc1ccccc1)C(=O)O)[C@@H](C)CC)[C@@H](C)CC)[C@@H](C)CC)C(C)C)C(C)C)C(C)C | Pseudomonas aeruginosa |  | P1, mouse serum | 0.5 h, 37 °C |  | MIC | 4 µg/mL (≈ 0.948 µM)
CC1(F)CN(C(=O)Cn2c(=O)c(C(=O)NCc3ccc(Cl)cc3)cc3nc(N4CCN(CCN)C4=O)cnc32)C1 | human cytomegalovirus | GFP reporter | AD169-GFP | retest | relative to: CC50 over EC50 | selectivity index | > 140
O=C(O)CCCOc1ccc(O)cc1-c1cc(-c2ccccc2C(F)(F)F)n(-c2ccccc2)n1 | Salmonella typhimurium | Ames test | TA100 | concentration not given, with S9 metabolic activation |  | growth-inhibiting concentration | 5000 µg/plate
Fc1cccc(COc2ccc(Nc3ncnc4ccc(-c5ccc(CN6CCCCC6)cc5)cc34)cc2Cl)c1 | Trypanosoma cruzi |  | NIH 3T3 |  | relative to: NIH 3T3 TC50 over T. cruzi EC50 | selectivity ratio | 3.7
O=C1NC(=O)c2c1c1cc(F)c[n+]3c1c1c2c2cc(O)ccc2[n]1[Ru-4]312([N]=C=S)[S+]3CC[S+]1CC[S+]2CC3 (stereo not drawn) | GRK6 (Homo sapiens, UniProt P43250) | enzyme activity |  | 100 nM, human enzyme, together with: 10 µM ATP | relative to: untreated | remaining activity | 42%
COc1cc2nc(NC3CCN(Cc4ccc(C(N)=O)cc4)CC3)nc(Oc3c(C)cc(C#N)cc3C)c2cc1OC | HIV-1 | MTT | MT4, RT A98G/V106I/V179D/Y181C/G333E mutant |  | relative to: CC50 over EC50 | selectivity index | < 1
CS(C)(=O)=Nc1ccc(-c2ccc(-c3nc4cc(O[C@@H]5CO[C@H]6[C@@H]5OC[C@H]6O)[nH]c4cc3F)cc2)cc1 | PAK1 (Homo sapiens, UniProt Q13153) | enzyme activity, inhibitor |  | 10 µM |  | inhibition | 17%
Cc1cc(/C=C/C#N)cc(C)c1Oc1nc(NC2CCN(Cc3ccc(S(C)(=O)=O)cc3)CC2)nc2ncccc12 | HIV-1 | MTT | MT4, RT A98G/V106I/V179D/Y181C/G333E mutant |  | relative to: CC50 over EC50 | selectivity index | 22
CC[C@H](C)[C@H](NC(=O)[C@H](CO)NC(=O)[C@H](Cc1ccc(O)cc1)NC(=O)[C@H](Cc1ccc(O)cc1)NC(=O)[C@H](CC(N)=O)NC(=O)CNC(=O)[C@H](CO)NC(=O)[C@H](Cc1ccc(O)cc1)NC(=O)[C@H](CO)NC(=O)[C@H](CO)NC(=O)[C@H](CC(N)=O)NC(=O)COCCOCCNC(=O)CN1CCN(CC(=O)O)CCN(CC(=O)O)CCN(CC(=O)O)CC1)C(=O)N[C@@H](CC(C)C)C(N)=O [copper-64 labelled] |  | dynamic PET | KPC mouse Ptf1a-CreER tdTomato, metastases | intravenous, 4.6 MBq/mouse, 0.1 min, 84 d after tamoxifen |  | tissue uptake | 0.08 %ID/mL
CN1CCN(S(=O)(=O)c2ccc(-c3ccc4ncnc(Nc5ccc(Cl)cc5)c4c3)cc2)CC1 | Trypanosoma cruzi |  | NIH 3T3 |  | relative to: NIH 3T3 TC50 over T. cruzi EC50 | selectivity ratio | 1.3
COc1ccccc1-c1n[nH]c2nc(NC3CCN(C(=O)Cc4ccc(F)cc4F)CC3)ncc12 |  | bead binding, competition bead pull-down, measured: LINJ.28.2370 | Leishmania donovani extract | 10 µM | relative to: vehicle | relative abundance | 3.21
O=C(c1ccc(-c2ccc3ncnc(Nc4ccc(OCc5cccc(F)c5)c(Cl)c4)c3c2)cc1)N1CCOCC1 | Trypanosoma cruzi |  | NIH 3T3 |  | relative to: NIH 3T3 TC50 over T. cruzi EC50 | selectivity ratio | 0.3
Cc1nc2cccc(OCC(C)(C)C(=O)NC(C)C)c2c(N)c1C(=O)[O-].[Na+] | Salmonella typhimurium | reverse mutation, plate incorporation | TA98 | 0.80 mg/plate, without S9 |  | revertant colonies | 27 ± 8 colonies/plate
O=C(Oc1cc(OC(=O)c2cc(O)c(O)c(O)c2)c2ccccc2c1)c1cc(O)c(O)c(O)c1 | Herpes simplex virus 2 |  | BEAS-2B, acyclovir-resistant |  | relative to: CC50 over IC50 | therapeutic index | 39.8
